Published values gathered from unrelated publications.
Each numbered part is a random draw from the data of one study; scales do not carry over between parts. Changes are numbered by the printed parent chain.

Sample 1
Target: CCNE2, cyclin fold, Cln2 fusion (human)
Technique: yeast growth competition, sequencing
Medium: yeast
Notes: strong parent motif
Relative to: not given
Direction: higher = stronger binding
Starting sequence: SCAPER docking peptide (human); SNARRSLNFGGST
| Change | normalised enrichment score |
| --- | --- |
| S1H | 0.698 |
| S12P | 2.11 |
| S12V | 1.13 |
| A3K | -0.505 |
| S6L | 1.73 |
| S1T | 1.71 |
| G10M | 0.979 |
| F9E | -0.197 |
| N8F | 1.51 |
| S6E | 0.812 |
| R5P | 0.139 |
| G11F | 0.339 |
| T13Y | 0.997 |
| F9P | 0.819 |
| G10D | 0.879 |
| G11M | 1.19 |
| R5E | -0.0827 |
| T13H | 0.985 |
| N2M | 0.261 |
| L7F | -0.00957 |
| N2Q | 1.18 |
| S6Q | 4.74 |
| R5N | -0.843 |
| S12G | 1.63 |
| F9M | 0.983 |

Sample 2
Target: Histone acetyltransferase KAT6A, both winged helices, GST fusion (KAT6A, Homo sapiens, UniProt Q92794, residues 1-181)
Technique: protein binding microarray
Form: double-stranded DNA, one strand shown
Medium: in vitro
Concentration: not given
Notes: 8-mer, flanks averaged, mean of 2 arrays, mostly near background
Relative to: not given
Direction: higher = stronger binding
Residues (chain): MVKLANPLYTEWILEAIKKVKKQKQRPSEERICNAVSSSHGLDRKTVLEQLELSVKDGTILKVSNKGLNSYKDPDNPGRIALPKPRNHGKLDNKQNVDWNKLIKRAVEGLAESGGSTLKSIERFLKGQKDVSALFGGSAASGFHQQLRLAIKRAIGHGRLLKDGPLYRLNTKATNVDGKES
| Sequence | E-score |
| --- | --- |
| GGCCGGCA | 0.238 |
| AAAAATTA | 0.0235 |
| CTGACCCA | -0.197 |
| AGTAAACC | -0.0123 |
| CATGGTTA | -0.0524 |
| TCCAGGGA | -0.122 |
| AAGCTGTA | -0.0315 |
| GCTGCAGA | -0.114 |
| ATCTCGAC | -0.0634 |
| AATCAGGT | -0.0756 |
| ACGGATAG | 0.171 |
| ATGAGAGC | -0.161 |
| AGTCTAGG | -0.0928 |
| CCGTCACA | 0.18 |
| GATCTGGA | -0.115 |
| CCAGTCTC | -0.13 |
| CAGTTCAC | 0.0172 |
| CGGTGAAC | 0.128 |

Sample 3
Target: RNA binding protein fox-1 homolog 2, RRM domain, GST-SBP tag (RBFOX2, Homo sapiens, UniProt O43251-10, residues 100-194)
Technique: RNA Bind-n-Seq
Form: RNA
Medium: in vitro
Concentration: 365 nM
Notes: natural RNA segment, single round, ends assumed
Relative to: no-protein control
Direction: higher = stronger binding
Shared flanks, not repeated: GGGAGUUCUACAGUCCGACGAUC … UGGAAUUCUCGGGUGCCAA
Construct (chain): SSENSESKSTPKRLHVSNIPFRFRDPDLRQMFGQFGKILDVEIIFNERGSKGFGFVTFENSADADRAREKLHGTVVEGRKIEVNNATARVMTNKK
| Sequence | RBNS enrichment (R) |
| --- | --- |
| AUAUAGCAAGAACGAAAAGACUGUGCAAGGCCUAGAGCCAGCAAAGAUGCUGAUGUAGCCAGGCCAUGCCGGAAGGAGCAGGGUGAAGCUUCCCCUCUCCCUACAAAUGG | 0.331 |
| GGGUUUCCUGGACCACCCACUGCUUCUCCCCAACCCUGAUGCGCUGACAUUCCCUUAGCACCAGCUGUCCCACCUCCAGGGUCCUGACCAGGUCAGAGAUGUCCCCUGCC | 0.392 |
| CUCCUCUUCUUCCAUCUCCCUCACCCAUGCCCCCACCCAAUCUAAAGAGACAGUGCUGUACAUUCUCAUAGAGAUAGAGAAGAUCUAAAAAGUUGAGACUACUCAAUCCA | 0.686 |
| AGUCCCACAUGUGGUCAUCAGAAAAUAAGCCAUUCCUCAUACCAAUAUAGGAUCAGCUCCUUGACCUCUGAGGGGCAGGAGUGCUUCCUGGUGUGUGUAUUAGAAUCCCU | 0.309 |
| CUGCAAGCCCCACCCUCCUUGAGACUGGAGCUGGCGUCUGCAUACGAGAGACUUGGUUGAACUUGGUUGGUCCUUGUCUGCACCCUCGACAAGACCACACUUUGGGACUU | 1.34 |
| GAUCCACAUGGCCUGUCCCCGUGAAGGCCAAAAAGCAUUUUCUCUCCAACUCCUUCUGGGAAGGUUGAGCUGGCCAGAGCCAAGAAACACUUCCAGGAACAUUAACAUGA | 0.56 |
| CCACGUCUCUGCCUCCUAAAUUCCUGUAUGGACUUGAGAUGGCUUCAUUGAAAAACCACACGGCAGAUGAACAACCUAUGGCCAAAACGUCCAAUAAAUGUCUCUACCGC | 0.304 |
| UUUUGGAAAUUGUUGUAUAUCACUAAAAGCAUGAAUUGGAACUGCAAUGAAAGUCAAAUUUACUUUAAAAAGAAAUUAAUAUGGCUUCACCAAGAAGCAAAGUUCAACUU | 12.6 |
| UACAAAGGUGGACUUAGAGCCAAGCACAAUCUCACAACGAUUCCAGAAUUCCCUAGAGACCUCUUGGGGGGCAACGGGCAGGCUGCAUCUCCCAGGAAACCAGGCAAGGG | 0.533 |
| GAUCCCAGGUGACUGGCUCUUGUGAAGAGUCUUAAGUGUCCUGUGGUACCGUAGAGUGGAAAUGAUCUUCAAUAAUAACAGUAGUGACUUUUGGAUGCUUUGUUGCUGGU | 0.511 |
| CUGGGCUGGGUCCGGUGGCUCACGCCUGUAAUCCCAGCAAUUUGGGAGUCCGAGGCGGGCGGAUCACUCGAGGUCAGGAGUUCCAGACCAGCCUGACCAAAAUGGUGAAA | 0.516 |
| UGGGAUUAAAGGCGUGCGCCACCACCACCCAGCUGUUACCACACUCUUAUUUGGAAGACUAGCAUGACCUUGCUGUUGAUGUGCCCAUGUAGCAGGGUAAAAGAAAAUUC | 3.61 |

Sample 4
Target: ABI1, truncated, D143A, DHFR fusion (Arabidopsis thaliana)
Technique: DHFR PCA, deep sequencing
Medium: yeast
Notes: methotrexate growth selection, single substitutions
With: (+)-ABA 17 µM
Relative to: wild-type fitted maximum
Direction: higher = stronger binding
Starting sequence: PYL1, truncated, DHFR fusion (Arabidopsis thaliana); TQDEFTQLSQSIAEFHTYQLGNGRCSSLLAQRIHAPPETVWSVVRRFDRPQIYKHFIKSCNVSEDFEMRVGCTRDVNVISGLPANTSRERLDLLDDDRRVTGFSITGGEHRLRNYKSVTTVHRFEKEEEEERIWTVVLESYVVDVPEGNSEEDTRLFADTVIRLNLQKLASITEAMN
| Change | relative binding score [%] |
| --- | --- |
| V161N | 4.6 |
| S80L | 6.78 |
| S80R | 6.06 |
| V70I | 80.5 |
| Y141K | -5.19 |
| E127M | 87.8 |
| L29R | 42.8 |
| G102M | 27.8 |
| R45Q | 7.24 |
| F15T | 13.1 |
| G71Q | 7.6 |
| Q167M | 78.1 |
| C60R | 7.04 |
| R24F | 42.9 |
| D95I | 34.7 |
| R49P | -2.69 |
| S87Q | 21.6 |
| G107L | -3.24 |
| W41D | 0.0975 |
| H110M | 13.6 |
| G21P | 79.8 |
| H122N | 38.5 |
| Q19C | 72 |
| M68L | 95.3 |
| T106S | 35.2 |

Sample 5
Target: Ras GTPase-activating protein-binding protein 1, full length (G3BP1, Homo sapiens, UniProt Q13283)
UniProt Q13283, sequence (whole entry, looked up): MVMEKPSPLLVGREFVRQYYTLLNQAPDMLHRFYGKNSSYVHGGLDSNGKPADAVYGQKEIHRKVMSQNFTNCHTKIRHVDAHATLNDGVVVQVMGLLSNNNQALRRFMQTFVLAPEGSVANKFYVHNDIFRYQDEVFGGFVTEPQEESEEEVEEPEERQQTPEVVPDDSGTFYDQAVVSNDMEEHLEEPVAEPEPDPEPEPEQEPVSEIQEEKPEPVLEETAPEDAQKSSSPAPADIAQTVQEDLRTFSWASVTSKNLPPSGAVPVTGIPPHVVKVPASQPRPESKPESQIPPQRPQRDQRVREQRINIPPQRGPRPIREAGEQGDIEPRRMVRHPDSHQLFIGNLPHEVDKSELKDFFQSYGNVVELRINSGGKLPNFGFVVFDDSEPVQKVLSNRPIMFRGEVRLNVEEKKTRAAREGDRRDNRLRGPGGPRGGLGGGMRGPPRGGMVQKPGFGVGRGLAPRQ
Technique: RNA Bind-n-Seq
Form: RNA
Medium: in vitro
Concentration: 200 nM
Notes: whole 134-nt RNA, ends assumed
With: 150 mM LiCl
Relative to: input library
Direction: higher = stronger binding
All molecules: 7-deaza-guanosine replaces G
Shared flanks, not repeated: GGGAGUUCUACAGUCCGACGAUC … UGGAAUUCUCGGGUGUCAAGG
| Sequence | log2 enrichment |
| --- | --- |
| UCCUGUGCUACACAUCGUAUGUACCGAAUCGGCCCCCCCGGGCCCCCCCGGCCCCCCCGGAAAGUAUUAUGUUACGCCGUUCGGAUCUGC | 0.558 |
| CCUCAAGUCCUGUGCUACACAUCGUAUGUACCGAAUCGGGGAGGAGGAGGGGAAAGUAUUAUGUUACGCCGUUCGGAUCUGCACUUCCAG | 0.705 |
| UGUGCGGGAGACAGGCGCCAACGGCACCUCUUUCAGUGUCCGCAAGACAGCCUACUGCGACAUCCACACGCCUCCAGGUUCAGCACGCCG | -0.299 |
| GCAGGAAGUAAAAACAAAUGGAAAUGCGUCGGAUAGUGGCAGGGGUGGGGGUUGCUAAGGAAAGGGUGGGAUGGGAGUGGGUAAAGAGUU | -0.173 |
| CCUGUGCUACACAUCGUAUGUACCGAAUCGGAAAAAAAGGAAAAAAAGGGAAAAAAAGGGAAAGUAUUAUGUUACGCCGUUCGGAUCUGC | -0.202 |
| UGUGGACGACAAUGAGGAGACCAUCAAAAAGCGGCUGGAGACCUAUUACAAGGCCACAGAACCUGUCAUCGCCUUCUAUGAGAAACGUGG | -0.284 |
| CAAACUUAAAGUCUCCCUUGCUCGGAAGAAGCCUCCAAUGAACAGUAUGCGGGGUGGUCUGCCACCCCGUGAGGGCAGAGGCAUGCCACC | 1.03 |
| UCAAGUCCUGUGCUACACAUCGUAUGUACCGAAUCGGUGGAAAAAGGUUUUUGGAAAGUAUUAUGUUACGCCGUUCGGAUCUGCACUUCC | -0.938 |
| GCAGGAAGUAAAAACAAAUGGAAAUGCUUCGGAUAGUGGCAGGGGUGGGGGUUGCUAAGUAAAGGGUGGGAUGGGAGUGGGUAAAGAGUU | 0.16 |
| UGGGAGGUGGAUUUUGUUUAUUUUUUUAGCUCAUUUCCAGGGGUGGGAAUUUUUUUUUAAUAUUUGUCAUGAAUAAAGUUGUUUUUGAAA | -0.27 |
| UGGGCCUGGUGGCAUGCGGGGAGGAAGAGGUGGCCUCAUGGAUCGUGGUGGUCCCGGUGGAAUGUUCAGAGGUGGCCGUGGUGGAGACAG | 0.24 |

Sample 6
Substance: PhoQ, residues 284 288 289 292 302 303 TGYLSA
Technique: Sort-seq
Measured: YFP reporter
Medium: E. coli
Notes: PhoQ-PhoP variant library
With: 10 µM Mg2+
Relative to: high Mg2+ state
Direction: higher = stronger signaling
| target | fold induction |
| --- | --- |
| PhoP, residues 12 14 15 18 19 VGHWL (Escherichia coli, UniProt P23836) | 4.12 |
| PhoP, residues 12 14 15 18 19 LHHYF (Escherichia coli, UniProt P23836) | 37 |
| PhoP, residues 12 14 15 18 19 TPWTL (Escherichia coli, UniProt P23836) | 14.9 |

For quick reference, copied from above (sample 5):
| Sequence | log2 enrichment |
| --- | --- |
| UCAAGUCCUGUGCUACACAUCGUAUGUACCGAAUCGGUGGAAAAAGGUUUUUGGAAAGUAUUAUGUUACGCCGUUCGGAUCUGCACUUCC | -0.938 |
| GCAGGAAGUAAAAACAAAUGGAAAUGCUUCGGAUAGUGGCAGGGGUGGGGGUUGCUAAGUAAAGGGUGGGAUGGGAGUGGGUAAAGAGUU | 0.16 |
| UGUGCGGGAGACAGGCGCCAACGGCACCUCUUUCAGUGUCCGCAAGACAGCCUACUGCGACAUCCACACGCCUCCAGGUUCAGCACGCCG | -0.299 |
| UGGGCCUGGUGGCAUGCGGGGAGGAAGAGGUGGCCUCAUGGAUCGUGGUGGUCCCGGUGGAAUGUUCAGAGGUGGCCGUGGUGGAGACAG | 0.24 |
| UGGGAGGUGGAUUUUGUUUAUUUUUUUAGCUCAUUUCCAGGGGUGGGAAUUUUUUUUUAAUAUUUGUCAUGAAUAAAGUUGUUUUUGAAA | -0.27 |
| CAAACUUAAAGUCUCCCUUGCUCGGAAGAAGCCUCCAAUGAACAGUAUGCGGGGUGGUCUGCCACCCCGUGAGGGCAGAGGCAUGCCACC | 1.03 |
| UCCUGUGCUACACAUCGUAUGUACCGAAUCGGCCCCCCCGGGCCCCCCCGGCCCCCCCGGAAAGUAUUAUGUUACGCCGUUCGGAUCUGC | 0.558 |
| UGUGGACGACAAUGAGGAGACCAUCAAAAAGCGGCUGGAGACCUAUUACAAGGCCACAGAACCUGUCAUCGCCUUCUAUGAGAAACGUGG | -0.284 |
| CCUCAAGUCCUGUGCUACACAUCGUAUGUACCGAAUCGGGGAGGAGGAGGGGAAAGUAUUAUGUUACGCCGUUCGGAUCUGCACUUCCAG | 0.705 |
| GCAGGAAGUAAAAACAAAUGGAAAUGCGUCGGAUAGUGGCAGGGGUGGGGGUUGCUAAGGAAAGGGUGGGAUGGGAGUGGGUAAAGAGUU | -0.173 |
| CCUGUGCUACACAUCGUAUGUACCGAAUCGGAAAAAAAGGAAAAAAAGGGAAAAAAAGGGAAAGUAUUAUGUUACGCCGUUCGGAUCUGC | -0.202 |
